Published values from different studies.
Numbered parts are unrelated; each lists some results of a single study. Values joined by “and” are separate records of one study, mostly repeats; a detail may differ.
Sequence of UniProt P45984 (whole entry, looked up): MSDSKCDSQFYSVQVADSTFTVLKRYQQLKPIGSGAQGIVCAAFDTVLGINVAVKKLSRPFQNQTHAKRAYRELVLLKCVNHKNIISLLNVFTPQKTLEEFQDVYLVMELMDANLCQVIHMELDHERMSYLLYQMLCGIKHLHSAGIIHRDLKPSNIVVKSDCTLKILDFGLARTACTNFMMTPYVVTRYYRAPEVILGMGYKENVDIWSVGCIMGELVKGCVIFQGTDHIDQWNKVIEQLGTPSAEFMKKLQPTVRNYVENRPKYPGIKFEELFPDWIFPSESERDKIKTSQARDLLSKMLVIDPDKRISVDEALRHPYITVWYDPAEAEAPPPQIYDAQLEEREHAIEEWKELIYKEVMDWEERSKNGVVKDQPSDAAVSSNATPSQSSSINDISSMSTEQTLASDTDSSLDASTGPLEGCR
Sequence of UniProt Q16659 (whole entry, looked up): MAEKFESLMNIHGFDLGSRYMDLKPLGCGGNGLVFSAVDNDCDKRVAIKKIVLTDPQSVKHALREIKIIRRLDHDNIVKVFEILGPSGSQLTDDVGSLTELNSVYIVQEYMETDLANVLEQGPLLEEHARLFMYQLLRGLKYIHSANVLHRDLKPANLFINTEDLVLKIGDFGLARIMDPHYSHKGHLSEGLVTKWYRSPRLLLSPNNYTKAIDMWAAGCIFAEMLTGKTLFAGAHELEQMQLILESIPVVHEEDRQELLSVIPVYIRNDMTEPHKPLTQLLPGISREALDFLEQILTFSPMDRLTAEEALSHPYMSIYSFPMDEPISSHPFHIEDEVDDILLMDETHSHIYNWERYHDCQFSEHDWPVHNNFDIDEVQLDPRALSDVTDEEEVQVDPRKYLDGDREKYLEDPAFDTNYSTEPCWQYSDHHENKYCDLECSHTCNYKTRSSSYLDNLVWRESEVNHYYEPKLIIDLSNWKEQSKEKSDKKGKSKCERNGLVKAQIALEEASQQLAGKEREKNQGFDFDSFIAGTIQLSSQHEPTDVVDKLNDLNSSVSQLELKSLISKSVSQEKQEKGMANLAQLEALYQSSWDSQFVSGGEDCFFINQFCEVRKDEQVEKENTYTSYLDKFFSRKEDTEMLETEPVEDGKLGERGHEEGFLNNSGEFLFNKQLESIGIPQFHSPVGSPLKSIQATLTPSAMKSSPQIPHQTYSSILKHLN
Sequence of UniProt Q13557 (whole entry, looked up): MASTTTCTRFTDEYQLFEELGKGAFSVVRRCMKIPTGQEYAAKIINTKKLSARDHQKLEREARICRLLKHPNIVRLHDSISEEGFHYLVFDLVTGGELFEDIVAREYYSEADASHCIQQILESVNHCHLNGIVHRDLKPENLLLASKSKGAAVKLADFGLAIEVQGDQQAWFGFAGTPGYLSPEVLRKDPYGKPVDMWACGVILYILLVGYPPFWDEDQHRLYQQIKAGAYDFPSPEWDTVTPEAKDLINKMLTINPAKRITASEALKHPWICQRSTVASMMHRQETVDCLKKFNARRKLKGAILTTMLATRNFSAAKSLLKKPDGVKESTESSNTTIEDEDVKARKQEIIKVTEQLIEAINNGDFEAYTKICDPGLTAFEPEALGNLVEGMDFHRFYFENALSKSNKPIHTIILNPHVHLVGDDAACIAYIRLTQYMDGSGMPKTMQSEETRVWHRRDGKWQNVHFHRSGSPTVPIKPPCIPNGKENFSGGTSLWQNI
Sequence of UniProt P07948 (whole entry, looked up): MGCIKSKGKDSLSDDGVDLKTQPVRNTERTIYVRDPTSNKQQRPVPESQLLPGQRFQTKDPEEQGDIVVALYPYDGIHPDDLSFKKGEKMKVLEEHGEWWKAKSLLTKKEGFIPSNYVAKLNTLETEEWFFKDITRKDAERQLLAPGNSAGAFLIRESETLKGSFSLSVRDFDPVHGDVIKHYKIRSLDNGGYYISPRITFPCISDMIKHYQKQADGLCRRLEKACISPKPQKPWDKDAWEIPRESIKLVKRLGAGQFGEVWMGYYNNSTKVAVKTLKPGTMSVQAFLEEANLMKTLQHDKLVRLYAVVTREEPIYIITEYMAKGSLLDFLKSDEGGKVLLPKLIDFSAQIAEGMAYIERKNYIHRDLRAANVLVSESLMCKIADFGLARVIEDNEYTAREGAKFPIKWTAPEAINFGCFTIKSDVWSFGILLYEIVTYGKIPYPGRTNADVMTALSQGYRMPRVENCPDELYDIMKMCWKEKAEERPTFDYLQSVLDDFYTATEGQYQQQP
Sequence of UniProt Q99759 (whole entry, looked up): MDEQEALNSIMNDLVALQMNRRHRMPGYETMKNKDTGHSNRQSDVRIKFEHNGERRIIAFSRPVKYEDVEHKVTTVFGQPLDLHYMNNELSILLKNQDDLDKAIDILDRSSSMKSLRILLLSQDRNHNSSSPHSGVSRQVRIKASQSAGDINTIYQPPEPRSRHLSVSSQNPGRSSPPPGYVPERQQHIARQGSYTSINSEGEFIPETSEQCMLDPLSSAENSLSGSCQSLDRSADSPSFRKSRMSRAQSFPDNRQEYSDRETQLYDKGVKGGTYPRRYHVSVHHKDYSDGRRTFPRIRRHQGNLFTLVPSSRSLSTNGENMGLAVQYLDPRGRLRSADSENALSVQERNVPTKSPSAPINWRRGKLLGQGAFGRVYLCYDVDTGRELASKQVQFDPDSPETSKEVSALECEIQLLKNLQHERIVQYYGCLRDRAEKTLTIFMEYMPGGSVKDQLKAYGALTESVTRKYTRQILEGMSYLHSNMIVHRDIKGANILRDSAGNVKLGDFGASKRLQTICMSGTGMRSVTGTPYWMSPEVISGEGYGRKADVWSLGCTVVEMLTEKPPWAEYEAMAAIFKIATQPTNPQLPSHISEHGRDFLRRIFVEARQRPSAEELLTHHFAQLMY
Sequence of UniProt O75676 (whole entry, looked up): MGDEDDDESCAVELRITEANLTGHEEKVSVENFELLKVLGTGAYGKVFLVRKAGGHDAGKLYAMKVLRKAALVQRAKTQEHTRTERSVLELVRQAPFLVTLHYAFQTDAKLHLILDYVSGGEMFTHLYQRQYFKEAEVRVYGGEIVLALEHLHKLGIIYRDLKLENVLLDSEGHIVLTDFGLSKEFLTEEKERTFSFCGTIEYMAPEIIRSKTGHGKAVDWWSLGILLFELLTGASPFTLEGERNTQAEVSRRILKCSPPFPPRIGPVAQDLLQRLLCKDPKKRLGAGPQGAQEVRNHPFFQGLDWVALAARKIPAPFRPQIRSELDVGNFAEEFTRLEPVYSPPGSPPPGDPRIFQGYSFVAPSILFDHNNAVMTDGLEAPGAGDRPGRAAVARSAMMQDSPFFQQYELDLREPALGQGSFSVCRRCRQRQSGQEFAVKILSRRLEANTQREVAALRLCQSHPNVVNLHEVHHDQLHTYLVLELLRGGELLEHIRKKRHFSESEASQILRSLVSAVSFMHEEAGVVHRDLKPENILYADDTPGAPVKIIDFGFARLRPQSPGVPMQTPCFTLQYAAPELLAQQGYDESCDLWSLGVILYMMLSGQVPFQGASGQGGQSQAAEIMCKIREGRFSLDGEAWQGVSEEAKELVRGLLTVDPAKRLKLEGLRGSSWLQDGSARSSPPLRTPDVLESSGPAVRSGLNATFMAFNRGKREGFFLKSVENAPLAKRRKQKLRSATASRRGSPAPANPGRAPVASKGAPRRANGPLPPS
Sequence of UniProt P37173 (whole entry, looked up): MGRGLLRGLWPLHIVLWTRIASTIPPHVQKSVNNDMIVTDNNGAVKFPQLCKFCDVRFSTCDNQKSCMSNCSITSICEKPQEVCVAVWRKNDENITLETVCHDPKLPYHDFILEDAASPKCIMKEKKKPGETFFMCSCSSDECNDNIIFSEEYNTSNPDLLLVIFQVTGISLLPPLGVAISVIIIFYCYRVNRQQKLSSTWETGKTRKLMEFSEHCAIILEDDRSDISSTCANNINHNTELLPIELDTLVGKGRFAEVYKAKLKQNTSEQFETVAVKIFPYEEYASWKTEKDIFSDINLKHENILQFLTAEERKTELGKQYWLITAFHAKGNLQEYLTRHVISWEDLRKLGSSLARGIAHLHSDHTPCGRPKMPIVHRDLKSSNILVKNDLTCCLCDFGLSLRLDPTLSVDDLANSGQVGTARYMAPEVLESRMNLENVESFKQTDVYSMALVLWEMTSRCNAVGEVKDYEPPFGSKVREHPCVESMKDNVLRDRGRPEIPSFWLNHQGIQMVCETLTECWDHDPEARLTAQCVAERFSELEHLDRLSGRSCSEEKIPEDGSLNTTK
Sequence of UniProt O96017 (whole entry, looked up): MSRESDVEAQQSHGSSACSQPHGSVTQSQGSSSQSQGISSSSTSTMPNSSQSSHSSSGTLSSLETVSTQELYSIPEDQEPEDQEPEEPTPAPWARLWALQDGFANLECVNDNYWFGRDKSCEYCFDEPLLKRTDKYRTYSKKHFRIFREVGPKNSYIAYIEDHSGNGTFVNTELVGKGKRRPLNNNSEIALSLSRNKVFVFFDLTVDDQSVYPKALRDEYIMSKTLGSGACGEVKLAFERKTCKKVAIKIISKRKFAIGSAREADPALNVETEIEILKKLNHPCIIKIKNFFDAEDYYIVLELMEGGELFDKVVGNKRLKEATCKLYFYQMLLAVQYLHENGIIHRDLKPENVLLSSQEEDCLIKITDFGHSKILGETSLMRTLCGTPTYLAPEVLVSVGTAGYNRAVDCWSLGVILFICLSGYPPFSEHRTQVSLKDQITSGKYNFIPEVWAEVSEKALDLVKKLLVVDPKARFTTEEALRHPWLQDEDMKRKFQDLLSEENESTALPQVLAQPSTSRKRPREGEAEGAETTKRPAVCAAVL
Sequence of UniProt Q00535 (whole entry, looked up): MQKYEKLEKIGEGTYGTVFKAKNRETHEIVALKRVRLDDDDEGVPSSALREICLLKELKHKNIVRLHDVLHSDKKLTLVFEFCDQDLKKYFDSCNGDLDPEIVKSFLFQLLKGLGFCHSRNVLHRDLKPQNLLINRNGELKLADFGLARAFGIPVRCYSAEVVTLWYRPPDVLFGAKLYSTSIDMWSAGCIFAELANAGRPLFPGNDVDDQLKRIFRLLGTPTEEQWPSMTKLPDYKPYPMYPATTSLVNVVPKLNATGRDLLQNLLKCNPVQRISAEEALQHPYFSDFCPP

Study 1
SMILES: Nc1nc(Nc2ccc(S(N)(=O)=O)cc2)nn1C(=S)Nc1c(F)cccc1F
Read-out: enzyme activity
Action: inhibitor
Tested at: 0.5 µM
Baseline: control
It gave 3.96% for remaining activity (STK10 (Homo sapiens, UniProt O94804)).
For STK39 (Homo sapiens, UniProt Q9UEW8): remaining activity read 76.5%.
For CAMKK2 (Homo sapiens, UniProt Q96RR4): remaining activity read 5.4%.
For Cyclin-dependent kinase 5, with p25 (CDK5, Homo sapiens, UniProt Q00535): remaining activity read 0.156%.
It gave 67.6% for remaining activity (OXSR1 (Homo sapiens, UniProt O95747)).
It gave 89.3% for remaining activity (TGFBR2 (Homo sapiens, UniProt P37173)).
For STK11 (Homo sapiens, UniProt Q15831): remaining activity read 23.5%.
It gave 56.1% for remaining activity (Tyrosine-protein kinase Lyn, isoform B (LYN, Homo sapiens, UniProt P07948)).
cGMP-dependent protein kinase 1, isoform beta (PRKG1, Homo sapiens, UniProt Q13976) — remaining activity: 85.1%.
The remaining activity was 15.6% (CAMK2D (Homo sapiens, UniProt Q13557)).
The remaining activity was 75.2% (Protein kinase C beta type, isoform beta-I (PRKCB, Homo sapiens, UniProt P05771)).
It gave 78.2% for remaining activity (PRKACA (Homo sapiens, UniProt P17612)).
The remaining activity was 87.7% (Cyclin-dependent kinase 4, with cyclin D1 (CDK4, Homo sapiens, UniProt P11802)).
MAP3K3 (Homo sapiens, UniProt Q99759) — remaining activity: 5.41%.
For CHEK2 (Homo sapiens, UniProt O96017): remaining activity read 1.96%.
GRK3 (Homo sapiens, UniProt P35626) — remaining activity: 88%.
The remaining activity was 80.9% (MAPK9 (Homo sapiens, UniProt P45984)).
It gave 49.3% for remaining activity (IKBKB (Homo sapiens, UniProt O14920)).
DAPK1 (Homo sapiens, UniProt P53355) — remaining activity: 81.3%.
PRKCA (Homo sapiens, UniProt P17252) — remaining activity: 46.2%.
It gave 81.8% for remaining activity (TGFBR1 (Homo sapiens, UniProt P36897)).
It gave 83% for remaining activity (DAPK2 (Homo sapiens, UniProt Q9UIK4)).
IKBKE (Homo sapiens, UniProt Q14164) — remaining activity: 67.2%.

Study 2
Cell line: HuT78
Tested at: 2 µM
Time: 48 h
Baseline: untreated
The viability of `N#C/C(=C\c1ccc(O)c(O)c1)C(=O)NCc1ccccc1` is reported as 88.7%.
`COc1cc2ncnc(Nc3ccc(O)c(Br)c3)c2cc1OC` gave a viability of 114%.
`COc1ccc(S(=O)(=O)N(CCO)c2ccccc2CN(C)C/C=C/c2ccc(Cl)cc2)cc1` gave a viability of 115%.
The viability of `O=C1NC(=O)/C(=C/c2ccc(-c3ccc(F)cc3O)o2)S1` is reported as 129%.
With `C[C@]1(O)C[C@@H](c2nc(-c3ccc4ccc(-c5ccccc5)nc4c3)c3c(N)nccn32)C1` the viability was 110%.
`C1=N/C2=N/c3ccc(OCCN4CCCC4)c(c3)COC/C=C/COCc3cccc(c3)C(=C1)N2` has a viability of 83.1%.
For `CSc1cccc(Nc2ncc3cc(-c4c(Cl)cccc4Cl)c(=O)n(C)c3n2)c1`, the viability was 103%.
The viability of `Cc1nc(Nc2cnn(C3CCNCC3)c2)nc2c1N(C)C(=O)c1cc3ccccc3cc1N2C` is reported as 85.7%.

Study 3
SMILES: CC(C)(C(=O)O)[C@H](NC(=O)Cc1cccc(I)c1)c1ccc2oc(=O)[nH]c2c1
Method: Incucyte 3D growth
Tested at: 30 µM
Direction: higher = more growth
KP-4; 30 h — spheroid area: 1.13e+07 a.u. and 1.17e+07 a.u. and 1.65e+07 a.u. and 1.26e+07 a.u. and 1.42e+07 a.u. and 1.2e+07 a.u.
NCI-H1437; 114 h — spheroid area: 2.61e+07 a.u. and 2.66e+07 a.u. and 2.81e+07 a.u. and 2.53e+07 a.u. and 2.48e+07 a.u. and 3.16e+07 a.u.
The spheroid area was 7.82e+07 a.u. and 1.68e+07 a.u. and 2.53e+07 a.u. and 5.72e+07 a.u. and 3.24e+07 a.u. and 2.72e+07 a.u. (MEL-JUSO; 504.52 h).
It gave 7.26e+07 a.u. and 2.99e+07 a.u. and 3.75e+07 a.u. and 4.26e+07 a.u. and 3.7e+07 a.u. and 3.68e+07 a.u. for spheroid area (MEL-JUSO; 408.52 h).
It gave 7.56e+07 a.u. and 2.9e+07 a.u. and 3.15e+07 a.u. and 2.81e+07 a.u. and 2.82e+07 a.u. and 5.14e+07 a.u. for spheroid area (MEL-JUSO; 426.52 h).
For A375; 336.52 h: spheroid area read 1.68e+08 a.u. and 1.63e+08 a.u. and 1.69e+08 a.u. and 1.86e+08 a.u. and 1.74e+08 a.u. and 1.95e+08 a.u.
MEL-JUSO; 48.52 h — spheroid area: 1.32e+07 a.u. and 1.06e+07 a.u. and 1.13e+07 a.u. and 1.17e+07 a.u. and 1.29e+07 a.u. and 1.23e+07 a.u.
The spheroid area was 1.27e+09 a.u. and 1.33e+09 a.u. and 1.23e+09 a.u. and 1.3e+09 a.u. and 1.32e+09 a.u. and 1.34e+09 a.u. (PC-9; 162 h).

Study 4
SMILES: CCCCN(CCCC)C(=O)CN1C[C@@H](c2cc(OC)c3c(c2)OCO3)[C@H](C(=O)O)[C@H]1CC(C)(C)CCC
Read-out: cell-free assay
Method: competition with immobilised ligand
Tested at: 1 µM
The remaining binding was 99.4% (PIK3CA (Homo sapiens, UniProt P42336, C420R)).
For TNK1 (Homo sapiens, UniProt Q13470): remaining binding read 100%.
STK3 (Homo sapiens, UniProt Q13188) — remaining binding: 100%.
PNCK (Homo sapiens, UniProt Q6P2M8) — remaining binding: 100%.
For NEK7 (Homo sapiens, UniProt Q8TDX7): remaining binding read 86.6%.
For MAPK9 (Homo sapiens, UniProt P45984): remaining binding read 100%.
It gave 99.1% for remaining binding (FYN (Homo sapiens, UniProt P06241)).
Tyrosine-protein kinase JAK2, JH1 (JAK2, Homo sapiens, UniProt O60674) — remaining binding: 91%.
For BMX (Homo sapiens, UniProt P51813): remaining binding read 84.6%.
MAPK6 (Homo sapiens, UniProt Q16659) — remaining binding: 96.5%.
It gave 75.2% for remaining binding (SRC (Homo sapiens, UniProt P12931)).
It gave 95.8% for remaining binding (GAK (Homo sapiens, UniProt O14976)).
For EPHA2 (Homo sapiens, UniProt P29317): remaining binding read 97.8%.
The remaining binding was 100% (DDR1 (Homo sapiens, UniProt Q08345)).
It gave 100% for remaining binding (Ribosomal protein S6 kinase alpha-4, N-terminal kinase domain (RPS6KA4, Homo sapiens, UniProt O75676)).
It gave 90.5% for remaining binding (CIT (Homo sapiens, UniProt O14578)).

For quick reference, copied from above (study 1):
It gave 83% for remaining activity (DAPK2 (Homo sapiens, UniProt Q9UIK4)).
It gave 56.1% for remaining activity (Tyrosine-protein kinase Lyn, isoform B (LYN, Homo sapiens, UniProt P07948)).
The remaining activity was 15.6% (CAMK2D (Homo sapiens, UniProt Q13557)).
The remaining activity was 75.2% (Protein kinase C beta type, isoform beta-I (PRKCB, Homo sapiens, UniProt P05771)).
GRK3 (Homo sapiens, UniProt P35626) — remaining activity: 88%.
